# Experimental data of several laboratories.
# Numbered parts are unrelated; each lists some results of a single study.
# Sequence of UniProt O14920 (whole entry, looked up): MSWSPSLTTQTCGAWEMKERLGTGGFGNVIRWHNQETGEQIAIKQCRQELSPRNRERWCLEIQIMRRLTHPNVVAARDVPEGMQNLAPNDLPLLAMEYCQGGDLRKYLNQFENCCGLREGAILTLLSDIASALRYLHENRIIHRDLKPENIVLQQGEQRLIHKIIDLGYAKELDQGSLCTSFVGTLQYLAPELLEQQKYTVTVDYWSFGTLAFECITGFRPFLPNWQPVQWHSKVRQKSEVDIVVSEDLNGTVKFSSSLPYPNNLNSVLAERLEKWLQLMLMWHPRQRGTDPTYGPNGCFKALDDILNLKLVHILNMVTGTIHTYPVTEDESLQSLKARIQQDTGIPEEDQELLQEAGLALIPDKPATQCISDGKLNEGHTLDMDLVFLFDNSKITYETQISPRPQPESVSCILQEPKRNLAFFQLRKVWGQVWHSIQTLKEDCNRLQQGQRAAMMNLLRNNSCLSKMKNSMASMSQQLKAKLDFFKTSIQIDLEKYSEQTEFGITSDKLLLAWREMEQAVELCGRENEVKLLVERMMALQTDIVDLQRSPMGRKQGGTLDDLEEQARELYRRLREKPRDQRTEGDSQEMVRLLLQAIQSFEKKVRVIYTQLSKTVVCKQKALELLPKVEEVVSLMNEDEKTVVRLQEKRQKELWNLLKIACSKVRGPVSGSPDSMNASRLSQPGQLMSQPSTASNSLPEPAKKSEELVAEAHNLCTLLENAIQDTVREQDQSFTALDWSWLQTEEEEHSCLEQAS
# Sequence of UniProt P11802 (whole entry, looked up): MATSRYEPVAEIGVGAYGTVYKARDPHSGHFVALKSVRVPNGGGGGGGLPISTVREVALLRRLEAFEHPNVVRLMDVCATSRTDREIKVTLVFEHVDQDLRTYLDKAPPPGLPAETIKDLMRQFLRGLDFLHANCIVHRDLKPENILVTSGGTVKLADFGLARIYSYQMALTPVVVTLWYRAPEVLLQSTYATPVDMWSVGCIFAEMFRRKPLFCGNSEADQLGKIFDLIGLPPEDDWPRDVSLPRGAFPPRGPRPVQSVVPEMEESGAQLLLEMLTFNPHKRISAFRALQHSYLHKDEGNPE
# Sequence of UniProt Q9Y385 (whole entry, looked up): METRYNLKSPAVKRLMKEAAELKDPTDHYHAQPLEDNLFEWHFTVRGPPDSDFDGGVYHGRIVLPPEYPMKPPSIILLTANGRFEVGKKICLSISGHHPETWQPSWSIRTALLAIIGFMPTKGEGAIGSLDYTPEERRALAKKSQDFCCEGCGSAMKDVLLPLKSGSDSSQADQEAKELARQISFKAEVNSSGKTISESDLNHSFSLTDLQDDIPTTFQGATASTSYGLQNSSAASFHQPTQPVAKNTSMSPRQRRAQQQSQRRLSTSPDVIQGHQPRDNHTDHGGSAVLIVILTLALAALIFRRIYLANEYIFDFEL
# Sequence of UniProt Q06418 (whole entry, looked up): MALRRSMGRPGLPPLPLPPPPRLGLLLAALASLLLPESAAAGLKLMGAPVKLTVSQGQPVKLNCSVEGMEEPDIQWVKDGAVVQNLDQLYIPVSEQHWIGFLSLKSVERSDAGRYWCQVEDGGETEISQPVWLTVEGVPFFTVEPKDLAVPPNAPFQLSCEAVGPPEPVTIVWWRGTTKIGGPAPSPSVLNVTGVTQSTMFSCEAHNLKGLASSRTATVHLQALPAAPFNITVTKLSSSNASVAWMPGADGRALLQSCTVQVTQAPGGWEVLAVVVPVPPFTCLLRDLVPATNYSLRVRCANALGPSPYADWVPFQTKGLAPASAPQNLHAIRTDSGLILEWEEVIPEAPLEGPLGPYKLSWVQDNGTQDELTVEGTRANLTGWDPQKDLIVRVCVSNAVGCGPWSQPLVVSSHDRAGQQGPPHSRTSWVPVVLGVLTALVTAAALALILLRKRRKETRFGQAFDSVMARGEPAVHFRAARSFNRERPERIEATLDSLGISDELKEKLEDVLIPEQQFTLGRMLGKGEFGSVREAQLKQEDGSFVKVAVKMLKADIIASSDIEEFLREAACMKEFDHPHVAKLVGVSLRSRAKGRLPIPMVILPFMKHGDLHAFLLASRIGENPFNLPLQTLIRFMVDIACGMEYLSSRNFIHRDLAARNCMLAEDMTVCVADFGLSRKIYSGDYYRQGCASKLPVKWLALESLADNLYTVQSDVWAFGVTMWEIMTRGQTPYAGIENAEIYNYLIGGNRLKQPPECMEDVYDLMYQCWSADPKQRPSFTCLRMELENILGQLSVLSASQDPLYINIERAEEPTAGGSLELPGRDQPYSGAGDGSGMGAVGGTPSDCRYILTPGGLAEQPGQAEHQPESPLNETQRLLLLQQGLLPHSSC
# Sequence of UniProt Q16659 (whole entry, looked up): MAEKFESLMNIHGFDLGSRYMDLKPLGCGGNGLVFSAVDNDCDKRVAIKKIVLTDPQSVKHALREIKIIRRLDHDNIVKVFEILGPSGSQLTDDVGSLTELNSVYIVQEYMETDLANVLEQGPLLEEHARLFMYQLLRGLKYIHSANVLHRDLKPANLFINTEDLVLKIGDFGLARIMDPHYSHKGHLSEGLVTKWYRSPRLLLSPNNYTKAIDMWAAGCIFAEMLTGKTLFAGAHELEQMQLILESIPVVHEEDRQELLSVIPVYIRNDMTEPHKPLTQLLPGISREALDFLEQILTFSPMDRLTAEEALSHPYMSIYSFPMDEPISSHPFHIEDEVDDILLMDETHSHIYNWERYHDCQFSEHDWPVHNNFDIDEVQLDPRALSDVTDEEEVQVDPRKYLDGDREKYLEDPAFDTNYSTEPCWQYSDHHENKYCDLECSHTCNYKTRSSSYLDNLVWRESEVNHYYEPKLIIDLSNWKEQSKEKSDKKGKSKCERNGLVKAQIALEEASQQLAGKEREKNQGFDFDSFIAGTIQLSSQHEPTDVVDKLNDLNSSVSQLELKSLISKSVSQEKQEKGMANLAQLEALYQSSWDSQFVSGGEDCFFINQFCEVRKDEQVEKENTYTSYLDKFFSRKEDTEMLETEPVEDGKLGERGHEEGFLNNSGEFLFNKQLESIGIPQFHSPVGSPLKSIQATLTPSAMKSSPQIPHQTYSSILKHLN
# Sequence of UniProt P61081 (whole entry, looked up): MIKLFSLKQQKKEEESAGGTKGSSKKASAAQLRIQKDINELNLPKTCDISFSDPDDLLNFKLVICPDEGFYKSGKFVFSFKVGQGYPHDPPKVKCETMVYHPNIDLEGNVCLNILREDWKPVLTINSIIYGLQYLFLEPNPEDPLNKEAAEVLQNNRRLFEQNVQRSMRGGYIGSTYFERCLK
# Sequence of UniProt Q00535 (whole entry, looked up): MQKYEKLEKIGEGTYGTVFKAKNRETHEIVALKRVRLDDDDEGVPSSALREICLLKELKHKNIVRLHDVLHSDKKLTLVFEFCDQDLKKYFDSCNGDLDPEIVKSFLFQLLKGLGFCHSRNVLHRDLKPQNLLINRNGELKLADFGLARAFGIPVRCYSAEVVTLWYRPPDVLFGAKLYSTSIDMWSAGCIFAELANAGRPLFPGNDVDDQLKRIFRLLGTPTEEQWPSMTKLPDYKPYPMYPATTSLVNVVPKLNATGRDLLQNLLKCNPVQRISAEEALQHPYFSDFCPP
# Sequence of UniProt P51955 (whole entry, looked up): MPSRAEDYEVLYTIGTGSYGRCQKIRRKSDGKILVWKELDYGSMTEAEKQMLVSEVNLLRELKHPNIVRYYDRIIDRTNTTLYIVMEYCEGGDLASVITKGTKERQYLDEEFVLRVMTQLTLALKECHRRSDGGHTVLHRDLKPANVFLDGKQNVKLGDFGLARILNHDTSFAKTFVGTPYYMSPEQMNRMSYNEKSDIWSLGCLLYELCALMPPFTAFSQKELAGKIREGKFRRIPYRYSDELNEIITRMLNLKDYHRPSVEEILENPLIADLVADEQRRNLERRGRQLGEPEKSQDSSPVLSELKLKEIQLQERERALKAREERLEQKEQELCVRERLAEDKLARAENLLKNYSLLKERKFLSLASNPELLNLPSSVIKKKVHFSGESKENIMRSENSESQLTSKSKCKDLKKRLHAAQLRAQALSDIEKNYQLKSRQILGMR
# Sequence of UniProt Q96RR4 (whole entry, looked up): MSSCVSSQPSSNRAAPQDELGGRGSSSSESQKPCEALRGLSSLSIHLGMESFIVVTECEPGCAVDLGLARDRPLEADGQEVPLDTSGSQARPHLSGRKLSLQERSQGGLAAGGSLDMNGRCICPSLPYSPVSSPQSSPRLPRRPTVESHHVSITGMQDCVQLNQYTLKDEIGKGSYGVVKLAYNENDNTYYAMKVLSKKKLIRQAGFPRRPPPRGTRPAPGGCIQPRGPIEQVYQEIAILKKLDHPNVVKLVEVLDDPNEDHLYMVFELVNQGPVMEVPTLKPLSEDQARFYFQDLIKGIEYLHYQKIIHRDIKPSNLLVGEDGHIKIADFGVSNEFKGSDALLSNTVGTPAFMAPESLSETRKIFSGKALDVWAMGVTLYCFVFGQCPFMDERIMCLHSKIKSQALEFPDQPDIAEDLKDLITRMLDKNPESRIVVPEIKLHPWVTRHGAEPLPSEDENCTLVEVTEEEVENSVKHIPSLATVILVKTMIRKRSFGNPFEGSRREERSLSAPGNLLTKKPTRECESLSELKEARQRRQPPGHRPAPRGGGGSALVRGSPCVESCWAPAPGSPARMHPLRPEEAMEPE
# Sequence of UniProt Q9UIK4 (whole entry, looked up): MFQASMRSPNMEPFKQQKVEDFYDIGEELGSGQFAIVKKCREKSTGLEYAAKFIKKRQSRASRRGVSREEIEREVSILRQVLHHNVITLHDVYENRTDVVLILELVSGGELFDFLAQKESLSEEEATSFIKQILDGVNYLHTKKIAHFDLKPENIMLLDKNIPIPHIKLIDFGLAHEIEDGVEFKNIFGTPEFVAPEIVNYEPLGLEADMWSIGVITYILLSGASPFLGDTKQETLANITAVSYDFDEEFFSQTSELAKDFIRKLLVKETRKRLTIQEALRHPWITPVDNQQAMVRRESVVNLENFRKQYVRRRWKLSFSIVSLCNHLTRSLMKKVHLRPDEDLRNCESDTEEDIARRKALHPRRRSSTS

# Series 1 — cell line: HaCaT; tested at: 100 µM; time: 18 h
Structure (SMILES),viability [%]
OC(CCCN1CCCCC1)(c1ccccc1)c1ccccc1,114
CCOC(=O)CC(=O)N1CCSC1COc1ccccc1OC (stereo not drawn),99.5
Cc1c(-c2ccc(O)cc2)n(Cc2ccc(OCCN3CCCCCC3)cc2)c2ccc(O)cc12,19

# Series 2 — method: protein-binding microarray; molecule type: double-stranded DNA, one strand shown; medium: in vitro; tested at: 940 nM top; setting: 60-bp whole probe; added: salmon DNA 0.4 mg/ml; relative to: random background probes; reading: higher = stronger binding
# Target: Interferon regulatory factor 5, full length, phosphomimetic (IRF5, Homo sapiens, UniProt Q13568-2, residues 1-514, S451D/S453D/S456D/S462D)
# All sequences stand within: GCCTAGCAC … GTGCTAGGTCTTGATTCGCTTGACGCTGCTG
Oligonucleotide,fitted relative affinity
GACGATATCAGGCTGGAGAC,-0.682 z-score
GACTGTTTCCTTTTCCTGAC,1.79 z-score
GTAGGTTTCCTTTCCCTTTA,1.99 z-score
TTTGATTTCAGTATCGATTA,6.24 z-score
TCAGATCTCAGTTTCGATTA,8.46 z-score
GATGGACTGGGTCTCGGGAC,-0.251 z-score
TAAGGTCTCCTTCTCCTTTA,0.592 z-score
TCTTTTTCCTAATTGAACCC,1.23 z-score

# Series 3 — read-out: cell-free assay; method: competition with immobilised ligand; tested at: 1 µM
# Compound: CC1=C(C#N)[C@@H](c2ccc3[nH]nc(C)c3c2)C(C#N)=C(c2ccc(Cl)cc2)N1
target,remaining binding [%]
"PRPF4B (Homo sapiens, UniProt Q13523)",100
"MAPK6 (Homo sapiens, UniProt Q16659)",100
"TYRO3 (Homo sapiens, UniProt Q06418)",74.4

# Series 4 — Sequence: B1 (UHRF2 RING domain); method: yeast two-hybrid; medium: yeast; setting: mostly zero background; relative to: not given; reading: higher = stronger interaction
# B1: UHRF2 RING domain (UniProt Q96PU4); chain CGGDPEKKCHSCSCRVCGGKHEPNMQLLCDECNVAYHIYCLNPPLDKVPEEEYWYCPSCKTDSSEVVKAGER
target,lacZ reporter activity
UBE2S UBC core domain (UniProt Q16763),0
UBE2E3 UBC core domain (UniProt Q969T4),0
UBE2M UBC core domain (UniProt P61081),0
UBE2G1 UBC core domain (UniProt P62253),0
UBE2O UBC core domain (UniProt Q9C0C9),0
UBE2L3 UBC core domain (UniProt P68036),0
UBE2J1 UBC core domain (UniProt Q9Y385),0
UBE2I UBC core domain (UniProt P63279),0

# Series 5 — read-out: enzyme activity; mode: inhibitor; tested at: 0.5 µM; relative to: control
# SMILES: CCCNC(=O)Nc1ccc(Oc2ncnc3cc(OC)c(OC)cc23)cc1Cl
target,remaining activity
"CAMK2D (Homo sapiens, UniProt Q13557)",89.4%
"IKBKE (Homo sapiens, UniProt Q14164)",93.5%
"Tyrosine-protein kinase Lyn, isoform B (LYN, Homo sapiens, UniProt P07948)",94.1%
"GRK3 (Homo sapiens, UniProt P35626)",96.6%
"PRKCA (Homo sapiens, UniProt P17252)",99.3%
"OXSR1 (Homo sapiens, UniProt O95747)",96.5%
"NEK2 (Homo sapiens, UniProt P51955)",92.3%
"PRKACA (Homo sapiens, UniProt P17612)",99.7%
"cGMP-dependent protein kinase 1, isoform beta (PRKG1, Homo sapiens, UniProt Q13976)",95.4%
"TGFBR2 (Homo sapiens, UniProt P37173)",109%
"DAPK1 (Homo sapiens, UniProt P53355)",104%
"STK39 (Homo sapiens, UniProt Q9UEW8)",88%
"STK10 (Homo sapiens, UniProt O94804)",35%
"Cyclin-dependent kinase 4, with cyclin D1 (CDK4, Homo sapiens, UniProt P11802)",102%
"CHEK2 (Homo sapiens, UniProt O96017)",80%
"Protein kinase C beta type, isoform beta-I (PRKCB, Homo sapiens, UniProt P05771)",100%
"IKBKB (Homo sapiens, UniProt O14920)",100%
"TGFBR1 (Homo sapiens, UniProt P36897)",102%
"STK11 (Homo sapiens, UniProt Q15831)",87.3%
"MAPK9 (Homo sapiens, UniProt P45984)",104%
"DAPK2 (Homo sapiens, UniProt Q9UIK4)",108%
"Cyclin-dependent kinase 5, with p25 (CDK5, Homo sapiens, UniProt Q00535)",95.7%
"MAP3K3 (Homo sapiens, UniProt Q99759)",95.3%
"CAMKK2 (Homo sapiens, UniProt Q96RR4)",91.5%

# Other studies, line by line — host: mouse; medium: microsomes or S9; tested at: 2 µM; time: 0.5 h
Structure (SMILES),remaining compound
CN1O[C@H](COc2ccc(O/C(F)=C\c3ccccc3)cc2)C[C@@]1(Cn1cncn1)c1ccccc1,73.7%
CC(Sc1nnnn1C(C)C)C(=O)C12CC3CC(CC(C3)C1)C2 (stereo not drawn),> 99%

# Excerpt of the above (series 2):
Oligonucleotide,fitted relative affinity
GACTGTTTCCTTTTCCTGAC,1.79 z-score
GTAGGTTTCCTTTCCCTTTA,1.99 z-score
TTTGATTTCAGTATCGATTA,6.24 z-score
TCAGATCTCAGTTTCGATTA,8.46 z-score
